{"data": "Experimental data of several laboratories", "organism": "Escherichia coli"}
{"Structure (SMILES)": "Cc1ccnc(-c2cc(C(=O)NCCCCCC(=O)N[C@@H](CCCNC(=N)N)C(=O)N[C@@H](Cc3c[nH]c4ccccc34)C(=O)N[C@@H](CCCNC(=N)N)C(=O)N[C@@H](Cc3c[nH]c4ccccc34)C(=O)N[C@@H](CCCNC(=N)N)C(=O)N[C@@H](Cc3c[nH]c4ccccc34)C(N)=O)ccn2)c1", "test system": "ATCC 25922, susceptible", "conditions": "18 h, 37 °C, LED light 1.57 mW for 10 min", "MIC": "16 µM"}
{"Structure (SMILES)": "C=CCO/N=C(\\C(=O)N[C@@H]1C(=O)N(S(=O)(=O)O)[C@H]1C)c1csc(N)n1", "assay": "agar dilution", "test system": "CDC 1001728 NDM-1", "MIC": "16 µg/mL"}
{"Structure (SMILES)": "CC[C@H](C)[C@H](NC(=O)[C@@H](CCCNC(=N)N)NC(=O)[C@H](CCCNC(=N)N)NC(=O)[C@H](CO)NC(=O)[C@H](Cc1c[nH]c2ccccc12)NC(=O)[C@H](CCCNC(=N)N)NC(=O)[C@@H]1CCCN1C(=O)[C@H](CCCNC(=N)N)NC(=O)[C@@H]1CCCN1C(=O)[C@H](CC(C)C)NC(=O)[C@H](Cc1ccc(O)cc1)NC(=O)[C@@H]1CCCN1C(=O)[C@@H]1CCCN1C(=O)[C@H](CCCCN)NC(=O)[C@H](CC(=O)O)NC(=O)[C@@H](N)C(C)C)C(=O)N[C@@H](Cc1ccc(O)cc1)C(=O)N[C@@H](CC(N)=O)C(=O)N[C@H](CCCNC(=N)N)C(N)=O", "assay": "broth microdilution", "test system": "ATCC 25922", "conditions": "18 h, 37 °C, 25% MHB2", "MIC": "4 µg/mL"}
{"Structure (SMILES)": "CCn1c(-c2ccc(F)cc2)c(-c2ccc(F)cc2)n(Cc2ccccc2)c1=[Se]", "assay": "broth microdilution", "test system": "carbapenem-resistant BAA-2140", "conditions": "24 h", "MIC": "> 40 µM"}
{"Structure (SMILES)": "CC[C@H](C)[C@H](NC(=O)[C@@H](CCCNC(=N)N)NC(=O)[C@H](CCCNC(=N)N)NC(=O)[C@@H]1CCCN1C(=O)[C@@H]1CCCN1C(=O)[C@H](CCCNC(=N)N)NC(=O)[C@@H]1CCCN1C(=O)[C@H](CCCNC(=N)N)NC(=O)[C@@H]1CCCN1C(=O)[C@H](CC(C)C)NC(=O)[C@H](Cc1ccccc1)NC(=O)[C@@H]1CCCN1C(=O)[C@@H]1CCCN1C(=O)[C@H](CCCCN)NC(=O)[C@H](CC(=O)O)NC(=O)[C@@H](N)C(C)C)C(=O)N[C@@H](Cc1ccc(O)cc1)C(=O)N[C@@H](CC(N)=O)C(=O)N[C@H](CCCNC(=N)N)C(N)=O", "assay": "broth microdilution", "test system": "MC4100", "conditions": "18 h, 37 °C, 25% MHB2", "MIC": "16 µg/mL"}
{"Structure (SMILES)": "CCCCCCCCCCCCCC(=O)N[C@H](CCN)C(=O)N[C@@H]1C(=O)N[C@@H](CCN)C(=O)N[C@@H](CC(C)C)C(=O)N[C@@H](CCN)C(=O)N[C@H](Cc2ccccc2)C(=O)N[C@@H](CC(C)C)C(=O)N[C@@H](CCN)C(=O)N[C@H](CCN)C(=O)N[C@@H](C(C)C)C(=O)N[C@@H](CC(=O)O)C(=O)O[C@@H]1C", "test system": "ATCC 25922", "conditions": "with: purified DNA 0.1 mg/mL", "MIC": "no effect"}
{"Structure (SMILES)": "CC[C@H](C)[C@H](NC(=O)[C@@H](NC(=O)[C@H](CCCCN)NC(=O)[C@H](CCCCN)NC(=O)[C@@H](NC(=O)[C@H](Cc1c[nH]c2ccccc12)NC(=O)[C@H](CCCCN)NC(=O)[C@@H](NC(=O)[C@H](CC(C)C)NC(=O)[C@H](CCCCN)NC(=O)[C@H](CCCCN)NC(=O)[C@@H](N)C(C)C)[C@@H](C)CC)[C@@H](C)CC)C(C)C)C(N)=O", "conditions": "24 h, 37 °C, Mueller-Hinton broth, NH4Cl 6 µM", "MIC": "32 µM"}
{"Structure (SMILES)": "CC[C@H](C)[C@H](NC(=O)CNC(=O)[C@@H](NC(=O)CNC(=O)[C@@H](NC(=O)CNC(=O)[C@@H](NC(=O)[C@@H](NC(=O)[C@H](CCC(N)=O)NC(=O)[C@H](CCC(=O)O)NC(=O)[C@@H](NC(=O)[C@H](CC(C)C)NC(=O)[C@H](CCCNC(=N)N)NC(=O)[C@H](Cc1ccccc1)NC(=O)[C@@H](NC(=O)[C@H](CC(N)=O)NC(=O)[C@H](CCCCN)NC(=O)CNC(=O)[C@H](CCSC)NC(=O)[C@H](CCCCN)NC(=O)CNC(=O)[C@H](CC(C)C)NC(=O)[C@H](CCCCN)NC(=O)[C@H](CCCCN)NC(=O)CNC(=O)[C@H](Cc1ccccc1)NC(=O)[C@H](CCCCN)NC(=O)[C@H](CCCCN)NC(=O)[C@H](CC(C)C)NC(=O)[C@H](Cc1c[nH]c2ccccc12)NC(=O)CN)C(C)C)C(C)C)C(C)C)C(C)C)C(C)C)C(C)C)C(=O)N[C@@H](CC(N)=O)C(=O)N[C@@H](C)C(=O)N[C@@H](CC(C)C)C(=O)N[C@@H](CO)C(=O)O", "assay": "broth microdilution", "test system": "K88", "MIC": "0.64 log10 µg/mL"}
{"Structure (SMILES)": "OB(O)c1cnn(-c2cccc(Cl)c2)c1", "assay": "bacterial growth", "test system": "AmpC-overproducing clinical isolate", "conditions": "without cefotaxime", "MIC": "> 2050 µg/mL"}
{"Structure (SMILES)": "CC[C@H](C)[C@H](NC(=O)[C@@H](CCCNC(=N)N)NC(=O)[C@H](CCCNC(=N)N)NC(=O)[C@H](CCCNC(=N)N)NC(=O)[C@H](Cc1c[nH]c2ccccc12)NC(=O)[C@H](CCCNC(=N)N)NC(=O)[C@@H]1CCCN1C(=O)[C@H](CCCNC(=N)N)NC(=O)[C@@H]1CCCN1C(=O)[C@H](CC(C)C)NC(=O)[C@H](Cc1ccc(O)cc1)NC(=O)[C@@H]1CCCN1C(=O)[C@@H]1CCCN1C(=O)[C@H](CCCCN)NC(=O)[C@H](CC(=O)O)NC(=O)[C@@H](N)C(C)C)C(=O)N[C@@H](Cc1ccc(O)cc1)C(=O)N[C@@H](CC(N)=O)C(=O)N[C@H](CCCNC(=N)N)C(N)=O", "assay": "broth microdilution", "test system": "ATCC 25922", "conditions": "18 h, 37 °C, 25% MHB2", "MIC": "16 µg/mL"}
{"Structure (SMILES)": "N=C(N)NCCC[C@@H]1NC(=O)[C@@H](CCCNC(=N)N)NC(=O)[C@H](CCCNC(=N)N)NC(=O)[C@@H](C(c2ccccc2)c2ccccc2)NC(=O)[C@@H](C(c2ccccc2)c2ccccc2)NC(=O)[C@@H](C(c2ccccc2)c2ccccc2)NC(=O)[C@@H](CCCNC(=N)N)NC1=O", "test system": "ATCC BAA-2452, NDM-1 CRE", "MIC": "16 µg/mL"}
{"Structure (SMILES)": "CC[C@H](C)[C@H](NC(=O)[C@H](C)NC(=O)CNC(=O)[C@H](C)NC(=O)[C@H](CCCCN)NC(=O)[C@H](CO)NC(=O)[C@H](C)NC(=O)[C@H](CCSC)NC(=O)CN)C(=O)N[C@@H](C)C(=O)NCC(=O)N[C@@H](CCCCN)C(=O)N[C@H](C(=O)N[C@@H](C)C(=O)N[C@@H](CCCCN)C(=O)N[C@H](C(=O)N[C@@H](C)C(=O)N[C@@H](CC(C)C)C(=O)N[C@@H](CCCCN)C(=O)N[C@@H](C)C(=O)N[C@@H](CC(C)C)C(N)=O)C(C)C)[C@@H](C)CC", "test system": "0370, wild type, minimal salts medium", "conditions": "18 h, 37 °C", "MIC": "2.5 µg/mL"}
{"Structure (SMILES)": "CCCCCCCC(=O)N[C@@H](CCN)C(=O)N[C@H](C(=O)N[C@@H](CCN)C(=O)N[C@H]1CCNC(=O)[C@H]([C@@H](C)O)NC(=O)[C@H](CCN)NC(=O)[C@H](CCN)NC(=O)[C@H](CC(C)C)NC(=O)[C@@H](Cc2ccc(Br)cc2)NC(=O)[C@H](CCN)NC1=O)[C@@H](C)O", "assay": "broth microdilution", "test system": "ATCC 25922", "MIC": "0.125 to 0.25 µg/mL"}
{"Structure (SMILES)": "CC(C)[C@@H]1NC(=O)[C@@H](CCCNC(=N)N)NC(=O)[C@H]([C@@H](C)O)NC(=O)[C@@H](CCCN)NC(=O)[C@H](Cc2ccccc2)NC(=O)[C@@H](Cc2ccccc2)NC1=O", "test system": "AR0346, colistin-resistant", "conditions": "with: colistin", "MIC": "> 64 µg/mL"}
{"Structure (SMILES)": "CC(C)C[C@H](NC(=O)[C@@H](NC(=O)[C@H](CCCCN)NC(=O)[C@H](CCCCN)NC(=O)[C@H](CC(C)C)NC(=O)[C@H](Cc1c[nH]c2ccccc12)NC(=O)[C@H](CCCCN)NC(=O)[C@H](CC(C)C)NC(=O)[C@H](CC(C)C)NC(=O)[C@H](CCCCN)NC(=O)[C@H](CCCCN)NC(=O)[C@@H](N)C(C)C)C(C)C)C(N)=O", "conditions": "24 h, 37 °C, Mueller-Hinton broth, CaCl2 2.5 mM", "MIC": "64 µM"}
{"Structure (SMILES)": "CC(C)C[C@@H](NC(=O)[C@@H](CCCNC(=N)N)NC(=O)[C@H](N)CCCNC(=N)N)C(=O)N[C@H](CC(C)C)C(=O)N[C@H](CCCNC(=N)N)C(=O)N[C@H](CCCCN)C(=O)N[C@H](CC(C)C)C(=O)N[C@H](CCCCN)C(=O)NCC(=O)N[C@H](CCCCN)C(=O)N[C@H](CCCCN)C(=O)N[C@H](CC(C)C)C(=O)N[C@H](Cc1ccc(O)cc1)C(=O)N[C@H](CC(C)C)C(=O)N[C@H](Cc1ccc(O)cc1)C(=O)N[C@H](Cc1ccccc1)C(=O)N[C@H](CCCCN)C(=O)N[C@H](CC(C)C)C(=O)N[C@H](CCC(N)=O)C(=O)N[C@H](CC(C)C)C(=O)N[C@H](CC(C)C)C(=O)N[C@H](CCCCN)C(=O)N[C@H](CCCCN)C(N)=O", "test system": "KCTC 1682, Mueller-Hinton broth", "conditions": "with: 1 mM MgCl2", "MIC": "16 µM"}
{"Structure (SMILES)": "CC[C@H](C)[C@H](NC(=O)[C@@H](CCCNC(=N)N)NC(=O)[C@H](CCCNC(=N)N)NC(=O)[C@@H]1CCCN1C(=O)[C@@H]1CCCN1C(=O)[C@H](Cc1ccccc1)NC(=O)[C@@H]1CCCN1C(=O)[C@H](CCCNC(=N)N)NC(=O)[C@@H]1CCCN1C(=O)[C@H](CC(C)C)NC(=O)[C@H](Cc1ccc(O)cc1)NC(=O)[C@@H]1CCCN1C(=O)[C@@H]1CCCN1C(=O)[C@H](CCCCN)NC(=O)[C@H](CC(=O)O)NC(=O)[C@@H](N)C(C)C)C(=O)N[C@@H](Cc1ccc(O)cc1)C(=O)N[C@@H](CC(N)=O)C(=O)N[C@H](CCCNC(=N)N)C(N)=O", "assay": "broth microdilution", "test system": "MC4100", "conditions": "18 h, 37 °C, 25% MHB2", "MIC": "8 µg/mL"}
{"Structure (SMILES)": "N=C(N)NCCC[C@H](NC(=O)[C@H](CCCNC(=N)N)NC(=O)[C@H](Cc1ccccc1)NC(=O)[C@H](CO)NC(=O)[C@H](Cc1ccccc1)NC(=O)[C@H](Cc1c[nH]c2ccccc12)NC(=O)[C@H](Cc1ccccc1)NC(=O)[C@H](CO)NC(=O)[C@H](Cc1ccccc1)NC(=O)[C@H](CCCNC(=N)N)NC(=O)[C@@H](N)CCCNC(=N)N)C(N)=O", "assay": "broth microdilution", "test system": "25922, Mueller-Hinton broth", "conditions": "24 h, 37 °C, lowest concentration, 95% inhibition, with: BSA", "MIC": "128 µM"}
{"Structure (SMILES)": "CO[C@@H](C(N)=O)[C@H](NC(=O)c1ccc(NC(=O)[C@@H](N)Cc2ccc(O)cc2)cc1)C(=O)Nc1ccc(C(=O)Nc2ccc(C(=O)Nc3ccc(C(=O)O)c(O)c3OC(C)C)c(O)c2OC(C)C)cc1", "test system": "monooxygenase clone", "conditions": "16 h, 37 °C", "MIC": "1 µg/mL"}
{"note": "A few entries again:"}
{"Structure (SMILES)": "N=C(N)NCCC[C@H](NC(=O)[C@H](CCCNC(=N)N)NC(=O)[C@H](Cc1ccccc1)NC(=O)[C@H](CO)NC(=O)[C@H](Cc1ccccc1)NC(=O)[C@H](Cc1c[nH]c2ccccc12)NC(=O)[C@H](Cc1ccccc1)NC(=O)[C@H](CO)NC(=O)[C@H](Cc1ccccc1)NC(=O)[C@H](CCCNC(=N)N)NC(=O)[C@@H](N)CCCNC(=N)N)C(N)=O", "assay": "broth microdilution", "test system": "25922, Mueller-Hinton broth", "conditions": "24 h, 37 °C, lowest concentration, 95% inhibition, with: BSA", "MIC": "128 µM"}
